Measurements collected from several papers.
± marks the error that the study gave.

| SMILES | cell line | assay | conditions | scale | measurement | result |
| --- | --- | --- | --- | --- | --- | --- |
| [Cl][Au].[Se]=c1n(C23CC4CC(CC(C4)C2)C3)ccn1C12CC3CC(CC(C3)C1)C2 | A2780 ADR | MTT | – | reference: A2780 ADR over A2780 | resistance factor | 0.5 |
| COc1ccc(C2=NN(C3=NC(=O)C(=Cc4ccc(O)cc4)S3)C(c3ccc(F)cc3)C2)cc1 (stereo not shown) | T47D | PI flow cytometry | concentration not given, 24 h | – | cells in %S phase | 30.7% |
| C(=C/c1ccccc1)/c1ccccc1 | KG-1a | cell proliferation, ATP luminescence | 24 h | reference: vehicle | lowest effective concentration | 2 µM |
| COc1cc(CNC(=O)C[C@H](C)CCC=C(C)C)ccc1OCc1cn(-c2ccc(C#N)cc2)nn1 | SK-MEL-5 melanoma cells | SRB | 10 µM, 48 h | – | growth percent | 31.1% |
| CCCC(CCC)C(=O)[O][Pt]([NH2])([NH2])([Cl])([Cl])[O]C(=O)c1ccccc1OC(C)=O | PSN1 | – | 1 µM, 24 h | – | depolarised mitochondria cells | 25 to 30% |
| COc1cc(CNC(=O)C[C@H](C)CCC=C(C)C)ccc1OCc1cn(-c2ccc(F)cc2)nn1 | SN12C | SRB | 10 µM, 48 h | – | growth percent | 80.8% |
| CN1CCN(C(=O)N(CCCCCCC(=O)NO)c2ccc(-c3ccc4cnn(C)c4c3)cc2)CC1 | multiple myeloma cells | immunoblot, item: p21 | 300 nM | – | protein level | increased |
| CC(=O)OC[C@H]1O[C@@H](Sc2sc(C(=O)c3ccc(Br)cc3)c(N)c2-c2nc3ccccc3s2)[C@H](OC(C)=O)[C@@H](OC(C)=O)[C@H]1OC(C)=O | UACC-257 | SRB | 10 µM, 48 h | reference: untreated | growth | 104% |
| COc1cc(CNC(=O)C[C@H](C)CCC=C(C)C)ccc1OCc1cn(-c2ccc(Cl)c(Cl)c2)nn1 | HOP-92 | SRB | 10 µM, 48 h | – | growth percent | 51.6% |
| C[N+](C)(C)c1ccc(C2NC(c3ccc([N+](C)(C)C)cc3)C34c5c6c7c8c9c%10c(c%11c%12c3c3c5c5c%13c6c6c7c7c9c9c%14c%10c%10c%11c%11c%12c%12c3c3c5c5c%13c%13c6c6c7c9c7c9c%14c%10c%10c%11c%11c%12c3c3c5c5c%13c6c7c6c9c%10c%11c3c56)C824)cc1 (stereo not shown) | BCBL1 | cell growth or viability | 24 h | – | CC50 | 18.1 µM |
| CC(C)NCC(O)COc1cccc2ccccc12 (racemic) | hiPSC cardiac tissues 3D | active force | 15 min per concentration, paced at 1 Hz serum-free | – | minimum effective concentration | 3 µM |
| N=C(N/N=C/c1ncc[nH]1)N/N=C/c1ncc[nH]1 | PANC-1 | crystal violet | 72 h | reference: IC50 IMR-90 over IC50 PANC-1 | selectivity ratio | 18.6 |
| COc1cc(CNC(=O)C[C@H](C)CCC=C(C)C)ccc1OCc1cn(-c2ccc(Cl)cc2Cl)nn1 | SK-OV-3 ovarian cancer cells | SRB | 10 µM, 48 h | – | growth percent | 26.1% |
| CC/C=C\C/C=C\C/C=C\C/C=C\C/C=C\C/C=C\CCC(=O)Nc1ccn(C2OC(CO)C(O)C2(F)F)c(=O)n1 (stereo not shown) | SN12C | NCI60 screen | – | – | TGI | 4.49 µM |
| COc1cc(CNC(=O)C[C@H](C)CCC=C(C)C)ccc1OCc1cn(-c2cccc([N+](=O)[O-])c2)nn1 | SK-MEL-5 melanoma cells | SRB | 10 µM, 48 h | – | growth percent | 86.2% |
| CCCCCCCCCCCCCCCC(=O)N[C@@H](CCCCN)C(=O)N[C@@H](CCCCN)C(=O)N[C@@H](CO)C(=O)N[C@@H](CCCNC(=N)N)C(=O)N[C@@H](C)C(=O)N[C@@H](CC(C)C)C(=O)N[C@@H](Cc1ccccc1)C(N)=O | human gel-filtered platelets | platelet aggregation | concentration not given, with: ADP 20 µM | – | inhibition | inactive |
| CCC(=C(c1ccc(Cl)cc1)c1ccc(OCCN(CC)CC)cc1)c1ccc(OC)cc1 | Ishikawa | estrogenic activity, agonist | 1 nM, 72 h, unit not given | reference: DMSO | alkaline phosphatase activity | 1.18 ± 0.67 |
| COc1ccc([C@@H]2CC(=O)c3c(O)cc(O[C@@H]4O[C@H](CO[C@@H]5O[C@@H](C)[C@H](O)[C@@H](O)[C@H]5O)[C@@H](O[C@H]5O[C@H](CO)[C@@H](O)[C@H](O)[C@H]5O)[C@H](O)[C@H]4O)cc3O2)cc1O | A549 | cell growth or viability, MTS | 50 µg/mL, 48 h | – | viability | 50.9% |
| CC(C)c1c(-c2cccc3[nH]ccc23)[nH]c(C(=O)O)c1-c1c(Cl)ccc2[nH]ccc12 | TEX cells | – | concentration not given | – | CD34-positive cells | 26% |
